Results gathered from unrelated publications.
Lines come from different studies, so protocols differ.

| Structure (SMILES) | assay | test system | setting | endpoint | result |
| --- | --- | --- | --- | --- | --- |
| CNC(=O)n1ccc2cc(Oc3ccnc(NC(=O)c4ccc(C5CCN(CCO)CC5)cc4)c3)c(OCCOC)cc21 | – | healthy human | oral, 35 mg | subjects, with TEAEs, treatment-related | 14.3% |
| NCCCC[C@@H]1NC(=O)[C@@H](Cc2c[nH]c3ccccc23)NC(=O)[C@H](c2ccccc2)NC(=O)[C@@H]2C[C@@H](OC(=O)NCCN)CN2C(=O)[C@H](Cc2ccccc2)NC(=O)[C@H](Cc2ccc(OCc3ccccc3)cc2)NC1=O | – | healthy human volunteers | 600 µg twice daily | subjects with upper abdominal pain | 3% |
| Cc1ncc2n1-c1ccc(Cl)cc1C(c1ccccc1F)=NC2 | – | human | oral, dose not given | subjects with terminating TEAE | 0% |
| CC(=O)N(C)[C@H]1CCN(C(=O)c2cnc3c(c2)C[C@](C)(c2ccc(F)cc2)N3)C1 | – | healthy male human | oral, 60 mg once daily, multiple rising dose, added: midazolam | subjects with drug-related AEs | 37.5% |
| C[C@]1(CO)Cc2ncn(-c3ccc(C#N)c(Cl)c3)c2C(=O)O1 | – | human, Chinese | 80 mg single dose | subjects with any TEAE | 50% |
| COc1ccc2c(c1)[C@]13CCCC[C@@H]1[C@H](C2)N(C)CC3 | – | human | oral, dose not given | subjects with serious treatment-related TEAE | 0% |
| CC[C@H]1[C@@H](O)[C@@H]2[C@H](CC[C@]3(C)[C@@H]([C@H](C)CCNC(=O)NS(=O)(=O)c4ccc(C(C)(C)C)cc4)CC[C@@H]23)[C@@]2(C)CC[C@@H](O)C[C@@H]12 | – | human | concentration not given, study, added: fluconazole | subjects with TEAEs | 50% |
| Cc1ncc2n1-c1ccc(Cl)cc1C(c1ccccc1F)=NC2 | item: blood creatinine increased | humans | oral, dose not given | subjects with TEAEs | 0% |
| C=C(C)[C@@H]1CCC(C)=C[C@H]1c1c(O)cc(CCCCC)cc1O | – | human | 750 mg, trial 17074, added: rifampicin 600 mg | subjects with Chromaturia | 0% |
